{"data": "Published values of several laboratories", "note": "Every numbered part comes from another study and shows a few of its results, in no order. Substitutions count along the parent as printed.", "sequence of UniProt P62837 (whole entry, looked up)": "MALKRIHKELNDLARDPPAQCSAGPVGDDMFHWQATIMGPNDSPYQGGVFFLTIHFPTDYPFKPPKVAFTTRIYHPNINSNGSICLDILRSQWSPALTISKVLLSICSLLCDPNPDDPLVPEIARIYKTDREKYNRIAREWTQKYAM"}
{"data": "Set 1", "target": "TAR DNA-binding protein 43, full length, His tag (TARDBP, Homo sapiens, UniProt Q13148, residues 1-414)", "technique": "RNA Bind-n-Seq", "form": "RNA", "matrix": "in vitro", "concentration": "20 nM", "notes": "6-mer, flanks averaged, single round", "together with": "150 mM KCl", "relative to": "input library", "direction": "higher = stronger binding"}
{"Strand": "CCGACG", "6-mer enrichment (R)": 0.908}
{"Strand": "UGCGCU", "6-mer enrichment (R)": 0.773}
{"Strand": "AGUAGA", "6-mer enrichment (R)": 0.882}
{"Strand": "GUUAUG", "6-mer enrichment (R)": 0.906}
{"Strand": "AAAUUG", "6-mer enrichment (R)": 0.662}
{"Strand": "AGCCCU", "6-mer enrichment (R)": 0.635}
{"Strand": "AUUCUC", "6-mer enrichment (R)": 0.533}
{"Strand": "GACCAU", "6-mer enrichment (R)": 0.685}
{"data": "Set 2", "target": "HLA class I histocompatibility antigen, A alpha chain, allele A*25:01 (Homo sapiens, UniProt P04439)", "effect on": "peptide-MHC binding", "form": "peptide", "concentration": "concentration not given"}
{"Sequence": "LLAMTFWPA", "binding": "inactive"}
{"Sequence": "VWKQLFPEL", "binding": "inactive"}
{"Sequence": "AVGFFPTGV", "binding": "inactive"}
{"data": "Set 3", "target": "CCNB1, cyclin fold, Cln2 fusion (human)", "technique": "yeast growth competition, sequencing", "matrix": "yeast", "notes": "strong parent motif", "relative to": "not given", "direction": "higher = stronger binding", "parent": "viral docking peptide; TSVRRALFTGGSD"}
{"Change": "TSPRRALFTGGSD [V3P]", "normalised enrichment score": 0.734}
{"Change": "TVVRRALFTGGSD [S2V]", "normalised enrichment score": 1.25}
{"Change": "TSLRRALFTGGSD [V3L]", "normalised enrichment score": 0.372}
{"Change": "TSVVRALFTGGSD [R4V]", "normalised enrichment score": 3.25}
{"Change": "TSVRRALFQGGSD [T9Q]", "normalised enrichment score": 2.56}
{"Change": "TSVRRALVTGGSD [F8V]", "normalised enrichment score": 0.0482}
{"Change": "TSVRRPLFTGGSD [A6P]", "normalised enrichment score": 0.382}
{"Change": "TSVRRAHFTGGSD [L7H]", "normalised enrichment score": 0.202}
{"Change": "TSVRRALFTGLSD [G11L]", "normalised enrichment score": 1.99}
{"Change": "TSVRRALFFGGSD [T9F]", "normalised enrichment score": 3.13}
{"Change": "TSVRRALFTPGSD [G10P]", "normalised enrichment score": 1.72}
{"Change": "TSIRRALFTGGSD [V3I]", "normalised enrichment score": 1.53}
{"Change": "TSVFRALFTGGSD [R4F]", "normalised enrichment score": 0.292}
{"Change": "TSVRHALFTGGSD [R5H]", "normalised enrichment score": 0.608}
{"data": "Set 4", "target": "ABI1, truncated, D143A, DHFR fusion (Arabidopsis thaliana)", "technique": "DHFR PCA, deep sequencing", "matrix": "yeast", "notes": "methotrexate growth selection, single substitutions", "together with": "(+)-ABA 710 µM", "relative to": "wild-type fitted maximum", "direction": "higher = stronger binding", "parent": "PYL1, truncated, DHFR fusion (Arabidopsis thaliana); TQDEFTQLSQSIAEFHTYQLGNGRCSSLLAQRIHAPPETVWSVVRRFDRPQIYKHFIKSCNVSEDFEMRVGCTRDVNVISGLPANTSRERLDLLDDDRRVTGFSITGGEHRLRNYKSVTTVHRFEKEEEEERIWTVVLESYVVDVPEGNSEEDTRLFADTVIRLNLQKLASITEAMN"}
{"Change": "W134R", "relative binding score [%]": 102}
{"Change": "Y53Q", "relative binding score [%]": 51.2}
{"Change": "Q10G", "relative binding score [%]": 108}
{"Change": "R74C", "relative binding score [%]": -14.7}
{"Change": "G21C", "relative binding score [%]": 94.6}
{"Change": "G23V", "relative binding score [%]": 89.1}
{"Change": "T86S", "relative binding score [%]": 102}
{"Change": "K168R", "relative binding score [%]": 99.1}
{"data": "Further values, each from its own experiment", "B1": "TRIM48 RING domain (UniProt Q8IWZ4); chain ISQVFQRELTCPICMNYFIDPVTIDCGHSFCRPCFYLNWQDIPILTQCFECIKTIQQRNLKT"}
{"Sequence": "B1 (TRIM48 RING domain)", "target": "UBE2D2 UBC core domain (UniProt P62837)", "test": "yeast two-hybrid", "test system": "yeast", "conditions": "mostly zero background", "scale": "relative to: not given, higher = stronger interaction", "quantity": "lacZ reporter activity", "value": 0}
{"note": "Some of these lines once more (set 3):"}
{"Change": "TSVVRALFTGGSD [R4V]", "normalised enrichment score": 3.25}
{"Change": "TSVRRALFQGGSD [T9Q]", "normalised enrichment score": 2.56}
{"Change": "TSVRRALVTGGSD [F8V]", "normalised enrichment score": 0.0482}
{"Change": "TSVRRPLFTGGSD [A6P]", "normalised enrichment score": 0.382}
{"Change": "TSVRRAHFTGGSD [L7H]", "normalised enrichment score": 0.202}
